Experimental data from different studies.
Numbered parts are unrelated; each lists some results of a single study. Substitutions count along the parent as printed.

Block 1 — method: RNA Bind-n-Seq; molecule type: RNA; medium: in vitro; concentration: not given; reference: input RNA pool; reading: higher = stronger binding
Target: RING finger protein unkempt homolog, zinc fingers 1-6, GST-SBP tag (UNK, Homo sapiens, UniProt Q9C0B0, residues 30-357)
Sequence of UniProt Q9C0B0 (30-357, looked up): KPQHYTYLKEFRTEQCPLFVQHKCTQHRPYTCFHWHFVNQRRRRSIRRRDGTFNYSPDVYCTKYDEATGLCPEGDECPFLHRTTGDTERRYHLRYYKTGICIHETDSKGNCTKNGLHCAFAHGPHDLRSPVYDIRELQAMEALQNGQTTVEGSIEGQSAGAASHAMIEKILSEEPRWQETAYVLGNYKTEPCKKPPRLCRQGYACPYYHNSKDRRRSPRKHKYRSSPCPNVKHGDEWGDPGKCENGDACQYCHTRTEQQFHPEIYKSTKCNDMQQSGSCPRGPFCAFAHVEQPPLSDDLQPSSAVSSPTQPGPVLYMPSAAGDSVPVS
Notes: RNA with constant flanks, human and mouse sites, ends assumed
Shared flanks, not repeated: GGGAGUUCUACAGUCCGACGAUC … CAACAGAGGAUUGAGCAUCA
Sequence | bound/input enrichment [ratio]
UUAUCUUGAAAAAGCAUCACAGAAGUAGAAAAAAAUGUCGAAAGCAUUAUAACUGUAACGUUCUUUGAGUUUGUGAUUGAUCCACAUUUUUCCCCCUGCAUUAUGGAAAAUGUCUCUCAG | 0.215
AGUGACCAGCGGUUUAGACGGGUUGCAAAGGACCCGAGAUUUUGGGAAAUGCCAGAAAAGGAUCGAAAAGUCAAAAUUGACAAGAGAUUUCGAGCCAUGUUUCAUGACAAGAAGUUCAAG | 0.164
UUUAUUUUUAUUUUUAUUUUAUUUAUUUAAAAAUCUUGAUCUUUUUUACUUGUUUCAUCACAUAGCUCAGAGUAGGUCCUCAGAAAUUGUUCAUGAUUUUUAAAACAAAGGCCUUGGGCA | 4.32
GAGGGUUUGUCAGAGCCCAAGAAAAGGUCAGCAGAGGAUGAAAAUGAGCAUAAAGUGGAGUUCCGAAAGAAAGGGUUUGAAGCAGGAGGAUUUCUUGGAAGAAAGAAAGUUCCCUAUCUG | 0.281
GUGAAGAACACCAUCUACUGCAACGUGGAGCCAUCGGAAUCAAAUAUGCGCUGGGCACCUGAGUUCAUGAUCGACACUCUAGAGAACCCUGCAGCUCACACCUUCACCUACACGGGGCUA | 0.131
CUAGCAGUUAUAAGGCACCUUGAAAUAAAUUGUUUGUGCCUGGAAAUGCAGGGAGGGCAAUAGCUUUGUAAAUUGGUUUACAUUUUUCUCCUUGAAUUUUUCUAGGGUCCUAGUGCUUCC | 1.09
AAGAACAUACGAAUUGUGGUGAUGAACAAUCUCUUGCCUCGGUCAGUCAAAAUGCAUAUGAAAUAUGACCUGAAGGGUUCAACUUACAAGCGGCGGGCUUCUCAGAAAGAACGAGAGAAA | 0.361
GAGAACCAGGAACUCGAGGCUCCUGGAGGAAUUGCCACACCGCCAGUGUACGGUCAGCUUCUAGCUUUGUACUUGCUCCAGAACGACAUGAAUAAUGCAAGAUAUCUGUGGAAGAGGAUA | 0.204

Block 2 — method: RNA Bind-n-Seq; molecule type: RNA; medium: in vitro; concentration: 365 nM; reference: no-protein control; reading: higher = stronger binding
Target: RNA binding protein fox-1 homolog 2, RRM domain, GST-SBP tag (RBFOX2, Homo sapiens, UniProt O43251-10, residues 100-194)
Notes: natural RNA segment, single round, ends assumed
Shared flanks, not repeated: GGGAGUUCUACAGUCCGACGAUC … UGGAAUUCUCGGGUGCCAA
Target sequence (chain): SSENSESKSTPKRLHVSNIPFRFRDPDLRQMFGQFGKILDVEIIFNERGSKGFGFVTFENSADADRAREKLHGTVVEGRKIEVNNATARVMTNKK
Sequence | RBNS enrichment (R)
AUUUCCAGUUGCCCAUCAGAUUUAAUCUUACUUAUGUAAGGCAUGAUGGUGAUGAUAAGAAAAGGCCAGUGAUUGUUCAUCGAGCCAUCUUGGGAUCAGUGGAAAGAAUG | 0.307
CACAACUUGCACACCCCCUGUUCCCUCACUGUGUGCCCAACCUCUUCCUUUUUCCUGGGAUUCUUUAUCCUAAACCCUGCAUAUCUGAGAACCGCCUUUCUCAUAUUUCC | 3.74
GGGCUCCAGGGGAGCAUGCUGUCCAGGGGGCACAGAAGGGUGGUGAGUGUGAUCAAAUCUAGUCUCACUCCCACUUUUUAGUCUCACUCCUACUUUUGUCCACCACCCCU | 3.9
AGGCCUUACCUGUGGUGUGACAGAUUGAAUUGAUUGUUUACACUGGGGACUGUAUCUCGGAUCUUUAAAUAGAGGAAUCACAAACAGACUUAAGGACAGAUGCUGAGAUU | 0.914
AAACAGCGAUUUAAAUUGUAUUGAACAGGGCAUAUAAAAUGCAUUCUGUACCCUGAUCUGGCAUAUAGCUUCAAAACUGCAGUGGCGAGUGUCCAUCUCUUAGUUAGCUA | 0.298
GAUAAUUUUUAGCCUUUCCAAAAUGCAAAUAACUUGGAUAUAUUUCCAUUUUCCAGCUAUAGAGAGAAACAAUCCAGCUGCCUGGAAACUGUUAUUAGUAUAGAAGUGGC | 0.541
UUGAACAUUCUUAAAGUAUCUCGUGGUAUAAUUUCUGUUGACUUCAAGCUUUAAUUUGGAUCCACACCUACAGCUGACCCAAAUGUCUCCUCUGUAGUCAUCUUAUUUGG | 0.316
AUCAGUGUUAAUUCUAAAUCCUUGAUCCUCUGCAAUGUGCUUGAAAACACAAACCUUUUGGGUUAAAAGCUUUAACAUCUAUUAGGAAGAAUUUGUCCUGUGGGUUUGGA | 0.323

Block 3 — method: protein-binding microarray; molecule type: double-stranded DNA, one strand shown; medium: in vitro; concentration: 250 nM; notes: 60-bp whole probe; with: salmon DNA 0.4 mg/ml; reference: random background probes; reading: higher = stronger binding; shared flanks, not repeated: GCCTAGCAC … GTCTTGATTCGCTTGACGCTGCTG
Target: Interferon regulatory factor 7, full length, phosphomimetic (IRF7, Homo sapiens, UniProt Q92985, residues 1-503, S101K/S471D/S472D/S475D/S476D/S477D/S483D/S484D/S487D)
Construct (chain): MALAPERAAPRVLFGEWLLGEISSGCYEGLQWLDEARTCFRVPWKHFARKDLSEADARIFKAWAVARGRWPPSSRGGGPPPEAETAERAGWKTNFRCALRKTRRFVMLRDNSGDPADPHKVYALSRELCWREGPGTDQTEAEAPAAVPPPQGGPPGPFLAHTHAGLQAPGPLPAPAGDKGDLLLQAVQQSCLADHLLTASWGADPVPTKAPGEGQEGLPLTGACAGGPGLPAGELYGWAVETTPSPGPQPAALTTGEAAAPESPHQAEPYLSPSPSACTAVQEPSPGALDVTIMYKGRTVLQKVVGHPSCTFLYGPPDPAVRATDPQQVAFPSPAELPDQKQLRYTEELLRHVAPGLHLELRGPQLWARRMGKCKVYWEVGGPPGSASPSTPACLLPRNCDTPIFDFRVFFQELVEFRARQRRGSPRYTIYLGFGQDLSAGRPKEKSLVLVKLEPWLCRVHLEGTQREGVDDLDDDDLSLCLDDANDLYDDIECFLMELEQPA
Sequence | log fluorescence [z-score]
TCAGGTTTTACTTTCTAACTGTGCTAG | 1.05
TCAGTTCCCTATTTAAGACTGTGCTAG | 4.7
TTAGGTATCGGTCACGGTTAGTGCTAG | 0.545
TCATACCTGTATATCTTACTGTGCTAG | 0.123
TTCGATTTCGGGTTTCGATTAGTGCTA | 8.21
TTATGTCTCGGACTGGGTTAGTGCTAG | 0.345
TTCAGTTTTCCTATGTCATTGTGCTAG | 1.43
TTAGGTATCGTTATCGGTTAGTGCTAG | 2.14
GACGGTATCGGTCTCGGAACGTGCTAG | 1.21
GACTATCTCAGTTTCGAGACGTGCTAG | 4.26
TCAGTTTTCTTTTCCATACTGTGCTAG | 4.07
TTGGATATCGGGACTGGATTAGTGCTA | -0.241
TCATGAATGCCCTCTAACACTGTGCTA | -0.191
GACGGTATCGACTATCGGGAAGTGCTA | 0.169
TTAGGGCTCGGTCTCGGTTAGTGCTAG | 2.18
GACGGTCTCGACTTTCGGGACGTGCTA | 2.32
TTAGATTTCAGTATCGATTTGTGCTAG | 3.55
TCAACTTTGGTTTGTACACTGTGCTAG | -0.37
TTAGGTTTCGGACTGGGCTAGTGCTAG | 3.42

Block 4 — method: DHFR PCA, deep sequencing; medium: yeast; with: (+)-ABA 58 µM; reference: wild-type fitted maximum; reading: higher = stronger binding
Target: ABI1, truncated, D143A, DHFR fusion (Arabidopsis thaliana)
Notes: methotrexate growth selection, single substitutions
Starting sequence: PYL1, truncated, DHFR fusion (Arabidopsis thaliana); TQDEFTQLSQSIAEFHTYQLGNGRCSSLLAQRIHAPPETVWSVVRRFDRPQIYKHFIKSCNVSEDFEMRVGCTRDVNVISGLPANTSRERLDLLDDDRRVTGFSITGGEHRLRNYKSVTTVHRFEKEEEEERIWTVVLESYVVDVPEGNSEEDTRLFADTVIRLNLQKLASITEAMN; partner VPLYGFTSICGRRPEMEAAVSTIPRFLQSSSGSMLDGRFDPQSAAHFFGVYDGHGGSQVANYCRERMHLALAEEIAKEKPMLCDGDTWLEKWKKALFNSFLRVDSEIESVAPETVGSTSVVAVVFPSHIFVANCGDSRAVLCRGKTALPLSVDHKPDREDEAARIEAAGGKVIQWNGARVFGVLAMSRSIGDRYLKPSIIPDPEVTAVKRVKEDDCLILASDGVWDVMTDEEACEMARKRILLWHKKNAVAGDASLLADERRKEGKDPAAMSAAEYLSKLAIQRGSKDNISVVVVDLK
Variant | relative binding score [%]
E4D | 86.4
S59M | 66
R90M | 66.9
H16A | 3.06
N22Q | 97.9
G102C | 33.6
N22G | 91
E125H | 97.8
G23T | 75.7
N165D | 24.4
R88L | 78.2
I12K | 53.4
D75I | 94.8
P50D | -5.8
N77P | 5.25
R99P | -5.17
F5K | 92.9
I172Q | 54.3
G108L | -6.31
D144G | 31
Q10K | 93
V145K | 46.6
